# Measured values gathered from unrelated publications.
# Parts stem from different laboratories: compare values within a part only.
# Sequence of UniProt Q9UEE5 (whole entry, looked up): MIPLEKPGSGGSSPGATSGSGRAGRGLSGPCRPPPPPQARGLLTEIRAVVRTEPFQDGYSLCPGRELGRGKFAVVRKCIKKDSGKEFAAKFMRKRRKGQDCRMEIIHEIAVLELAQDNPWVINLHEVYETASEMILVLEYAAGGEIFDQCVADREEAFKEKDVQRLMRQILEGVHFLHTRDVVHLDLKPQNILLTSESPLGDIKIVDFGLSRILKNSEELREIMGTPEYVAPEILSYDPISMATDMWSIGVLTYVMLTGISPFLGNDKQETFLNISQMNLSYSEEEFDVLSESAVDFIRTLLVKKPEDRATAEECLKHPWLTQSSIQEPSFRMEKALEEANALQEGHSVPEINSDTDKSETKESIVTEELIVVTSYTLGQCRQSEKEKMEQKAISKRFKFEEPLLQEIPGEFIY
# Sequence of UniProt P68400 (whole entry, looked up): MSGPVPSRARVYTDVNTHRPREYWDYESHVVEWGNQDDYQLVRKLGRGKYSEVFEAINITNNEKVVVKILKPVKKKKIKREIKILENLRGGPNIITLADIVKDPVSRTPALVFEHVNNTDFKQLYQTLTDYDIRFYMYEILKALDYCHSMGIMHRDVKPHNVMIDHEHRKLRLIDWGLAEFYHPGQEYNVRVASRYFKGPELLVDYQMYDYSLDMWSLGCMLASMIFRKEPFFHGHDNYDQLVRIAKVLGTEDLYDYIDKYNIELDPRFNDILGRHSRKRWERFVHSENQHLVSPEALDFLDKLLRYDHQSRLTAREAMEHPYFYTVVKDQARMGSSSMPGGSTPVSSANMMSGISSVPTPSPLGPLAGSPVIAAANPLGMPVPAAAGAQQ
# Sequence of UniProt O43283 (whole entry, looked up): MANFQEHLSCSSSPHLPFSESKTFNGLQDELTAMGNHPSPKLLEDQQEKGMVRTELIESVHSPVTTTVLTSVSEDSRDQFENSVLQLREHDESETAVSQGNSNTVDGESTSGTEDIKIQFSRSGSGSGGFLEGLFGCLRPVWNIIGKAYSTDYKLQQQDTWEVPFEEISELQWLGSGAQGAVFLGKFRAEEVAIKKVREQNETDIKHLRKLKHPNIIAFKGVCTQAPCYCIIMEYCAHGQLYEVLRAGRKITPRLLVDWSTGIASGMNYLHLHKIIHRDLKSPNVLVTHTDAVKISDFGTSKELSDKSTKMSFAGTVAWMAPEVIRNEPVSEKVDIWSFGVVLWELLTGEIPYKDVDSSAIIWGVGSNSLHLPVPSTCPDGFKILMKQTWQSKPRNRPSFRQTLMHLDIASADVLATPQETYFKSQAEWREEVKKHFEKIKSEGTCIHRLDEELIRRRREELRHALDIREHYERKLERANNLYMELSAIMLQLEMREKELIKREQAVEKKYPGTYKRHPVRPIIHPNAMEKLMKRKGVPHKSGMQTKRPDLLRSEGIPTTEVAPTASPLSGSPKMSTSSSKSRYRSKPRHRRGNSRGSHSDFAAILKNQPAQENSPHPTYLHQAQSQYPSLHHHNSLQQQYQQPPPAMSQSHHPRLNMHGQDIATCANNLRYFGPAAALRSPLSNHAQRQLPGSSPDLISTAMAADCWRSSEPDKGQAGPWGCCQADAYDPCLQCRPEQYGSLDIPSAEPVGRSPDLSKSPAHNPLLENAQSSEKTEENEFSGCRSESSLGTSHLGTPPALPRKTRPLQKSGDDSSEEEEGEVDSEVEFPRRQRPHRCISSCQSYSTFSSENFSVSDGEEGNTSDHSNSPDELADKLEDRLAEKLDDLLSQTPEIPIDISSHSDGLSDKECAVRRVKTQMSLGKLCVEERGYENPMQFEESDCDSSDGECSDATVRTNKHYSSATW
# Sequence of UniProt P29323 (whole entry, looked up): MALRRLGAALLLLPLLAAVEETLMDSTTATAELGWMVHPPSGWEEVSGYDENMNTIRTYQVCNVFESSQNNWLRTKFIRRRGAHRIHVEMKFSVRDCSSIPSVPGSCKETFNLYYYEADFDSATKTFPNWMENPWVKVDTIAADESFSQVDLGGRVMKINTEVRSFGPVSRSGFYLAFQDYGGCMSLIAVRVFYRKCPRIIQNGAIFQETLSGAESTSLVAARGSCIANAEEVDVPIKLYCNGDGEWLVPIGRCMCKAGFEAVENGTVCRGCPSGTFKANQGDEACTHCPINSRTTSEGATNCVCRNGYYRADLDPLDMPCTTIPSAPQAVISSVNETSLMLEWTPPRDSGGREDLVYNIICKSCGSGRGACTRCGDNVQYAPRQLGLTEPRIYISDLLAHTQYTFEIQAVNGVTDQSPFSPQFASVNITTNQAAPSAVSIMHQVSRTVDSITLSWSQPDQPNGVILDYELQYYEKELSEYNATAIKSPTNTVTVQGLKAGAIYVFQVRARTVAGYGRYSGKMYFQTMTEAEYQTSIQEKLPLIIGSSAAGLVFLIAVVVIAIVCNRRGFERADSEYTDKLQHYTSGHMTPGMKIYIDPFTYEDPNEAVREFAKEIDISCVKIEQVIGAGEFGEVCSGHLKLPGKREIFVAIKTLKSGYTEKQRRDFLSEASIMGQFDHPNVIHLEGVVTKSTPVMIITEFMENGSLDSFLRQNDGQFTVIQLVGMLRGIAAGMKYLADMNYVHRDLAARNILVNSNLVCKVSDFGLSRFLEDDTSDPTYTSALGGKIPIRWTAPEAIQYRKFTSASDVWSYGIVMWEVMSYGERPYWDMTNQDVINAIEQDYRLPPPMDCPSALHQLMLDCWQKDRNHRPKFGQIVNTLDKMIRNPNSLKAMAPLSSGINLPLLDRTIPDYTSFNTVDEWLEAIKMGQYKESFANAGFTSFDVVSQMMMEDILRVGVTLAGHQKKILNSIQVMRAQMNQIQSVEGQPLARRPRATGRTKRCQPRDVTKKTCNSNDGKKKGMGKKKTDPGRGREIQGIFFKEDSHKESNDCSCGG
# Sequence of UniProt P52564 (whole entry, looked up): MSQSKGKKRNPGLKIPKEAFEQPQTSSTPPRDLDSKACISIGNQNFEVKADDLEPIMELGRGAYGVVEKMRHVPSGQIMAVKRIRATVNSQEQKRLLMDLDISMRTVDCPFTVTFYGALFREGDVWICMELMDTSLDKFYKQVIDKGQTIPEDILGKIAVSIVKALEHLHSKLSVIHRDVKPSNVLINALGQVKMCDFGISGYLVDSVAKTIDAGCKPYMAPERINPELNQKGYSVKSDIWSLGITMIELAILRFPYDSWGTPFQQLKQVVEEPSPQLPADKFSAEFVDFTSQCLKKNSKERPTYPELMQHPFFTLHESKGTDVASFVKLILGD
# Sequence of UniProt Q9NRM7 (whole entry, looked up): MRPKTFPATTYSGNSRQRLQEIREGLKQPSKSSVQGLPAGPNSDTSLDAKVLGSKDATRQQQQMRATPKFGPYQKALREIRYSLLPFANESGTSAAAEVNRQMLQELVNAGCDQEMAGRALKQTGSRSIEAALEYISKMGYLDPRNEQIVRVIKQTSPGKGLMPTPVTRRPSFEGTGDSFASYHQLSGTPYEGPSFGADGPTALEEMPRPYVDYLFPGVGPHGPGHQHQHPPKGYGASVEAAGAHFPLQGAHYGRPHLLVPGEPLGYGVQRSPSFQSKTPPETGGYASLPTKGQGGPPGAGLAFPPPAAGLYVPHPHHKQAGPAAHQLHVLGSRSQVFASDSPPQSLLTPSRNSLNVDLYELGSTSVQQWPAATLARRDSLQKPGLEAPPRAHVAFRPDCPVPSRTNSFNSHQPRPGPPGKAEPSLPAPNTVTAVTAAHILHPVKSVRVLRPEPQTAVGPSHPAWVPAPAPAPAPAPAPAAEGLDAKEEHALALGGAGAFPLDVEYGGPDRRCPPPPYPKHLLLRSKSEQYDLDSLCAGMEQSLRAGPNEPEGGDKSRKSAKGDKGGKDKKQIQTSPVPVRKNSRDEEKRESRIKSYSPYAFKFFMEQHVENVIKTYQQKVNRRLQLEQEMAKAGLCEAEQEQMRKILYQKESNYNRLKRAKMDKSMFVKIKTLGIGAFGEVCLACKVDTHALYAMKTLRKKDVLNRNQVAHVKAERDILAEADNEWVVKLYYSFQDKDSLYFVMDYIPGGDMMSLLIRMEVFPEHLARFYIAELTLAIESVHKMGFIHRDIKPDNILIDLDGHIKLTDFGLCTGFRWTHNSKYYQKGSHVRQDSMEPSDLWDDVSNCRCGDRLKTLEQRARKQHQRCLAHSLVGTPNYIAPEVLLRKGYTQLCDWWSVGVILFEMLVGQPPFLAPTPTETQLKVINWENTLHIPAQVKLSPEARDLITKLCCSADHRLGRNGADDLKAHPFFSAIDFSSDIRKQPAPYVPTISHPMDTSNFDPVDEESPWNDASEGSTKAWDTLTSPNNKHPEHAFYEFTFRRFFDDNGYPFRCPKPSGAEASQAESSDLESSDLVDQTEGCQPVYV

# Series 1
# Cell line: Huh-7
# Concentration: 10 µM
# Time: 24 h
SMILES,viability
C#CCN(C)Cc1ccccc1,100%
O=C(c1ccc(OCCN2CCCCC2)cc1)c1c(-c2ccc(O)cc2)sc2cc(O)ccc12,100%
Cc1cccc(Nc2ccccc2C(=O)O)c1C,101%
CCN(Cc1ccncc1)C(=O)C(CO)c1ccccc1 (centres unmarked),101%

# Series 2
# Cell line: mouse MPNST tumor cells
# Technique: high-content immunofluorescence imaging
# Measured: nuclear SOX9
# Concentration: 10 µM
# Time: 12 h
# Setting: mean of 2 replicates
# Relative to: DMSO control
# Direction: higher = more nuclear SOX9
Compound,nuclear SOX9 intensity
CNC(=O)c1c(F)cccc1Nc1nc(Nc2cc3c(cc2OC)CCN3C(=O)CN(C)C)nc2[nH]ccc12,90 % of DMSO
N#Cc1cc(C2=Nc3ccc(Br)cc3NC(=O)C2)ccn1,84.3 % of DMSO
OCC(O)COc1ccc(Cl)cc1 (centres unmarked),101 % of DMSO
CCCCCN(C)CCC(O)(P(=O)(O)O)P(=O)(O)O,108 % of DMSO

# Series 3
# Target: Ribosomal protein S6 kinase beta-1 (RPS6KB1, Homo sapiens, UniProt P23443)
# Sequence of UniProt P23443 (whole entry, looked up): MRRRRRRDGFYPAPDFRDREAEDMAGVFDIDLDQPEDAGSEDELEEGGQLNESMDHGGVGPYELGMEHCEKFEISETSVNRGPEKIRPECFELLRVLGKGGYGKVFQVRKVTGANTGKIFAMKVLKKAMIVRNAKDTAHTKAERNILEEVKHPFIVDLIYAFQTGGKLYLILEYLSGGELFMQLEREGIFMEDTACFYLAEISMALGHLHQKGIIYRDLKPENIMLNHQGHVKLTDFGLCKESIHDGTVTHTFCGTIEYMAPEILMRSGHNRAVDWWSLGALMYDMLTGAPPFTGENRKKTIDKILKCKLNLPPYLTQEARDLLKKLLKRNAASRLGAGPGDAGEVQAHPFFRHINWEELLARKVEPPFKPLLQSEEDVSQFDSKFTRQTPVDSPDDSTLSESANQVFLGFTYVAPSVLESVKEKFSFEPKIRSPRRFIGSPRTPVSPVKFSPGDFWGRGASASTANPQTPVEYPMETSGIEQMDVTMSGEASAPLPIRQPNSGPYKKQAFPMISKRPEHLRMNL
# Read-out: enzyme activity
# Mode: inhibitor
# Concentration: 0.5 µM
# Relative to: control
Structure (SMILES),remaining activity [%]
CCN(CC)CCNC(=O)c1c(C)[nH]c(/C=C2\C(=O)Nc3ccc(Cl)cc32)c1C,41.7
O=c1cc(-c2cccc3c2Sc2ccccc2S3)oc(N2CCOCC2)c1,91.5
N#C/C(=C\c1ccc(O)c(O)c1)C(=O)NCc1ccccc1,92.8
Cc1cc2ncc(-c3ccccc3)nc2cc1C,88.2

# Series 4
# Structure (SMILES): CCOC(=O)c1cc2cc(-c3cc(C(=O)NCc4ccc(C(=O)O)cc4)nn3C)ccc2[nH]1
# Concentration: 0.1 µM
target,read-out,technique,relative to,remaining binding
"MAP3K13 (Homo sapiens, UniProt O43283)",cell-free assay,competition with immobilised ligand,,74%
"FLT3 (Homo sapiens, UniProt P36888, ITD)",cell-free assay,competition with immobilised ligand,,98%
"FES (Homo sapiens, UniProt P07332)",cell-free assay,competition with immobilised ligand,,94%
"CDK19 (Homo sapiens, UniProt Q9BWU1)",,KINOMEscan competition,DMSO control,0%
"SGK1 (Homo sapiens, UniProt O00141)",cell-free assay,competition with immobilised ligand,,100%
"DCLK1 (Homo sapiens, UniProt O15075)",cell-free assay,competition with immobilised ligand,,86%
"LATS2 (Homo sapiens, UniProt Q9NRM7)",cell-free assay,competition with immobilised ligand,,74%
"MAP2K6 (Homo sapiens, UniProt P52564)",cell-free assay,competition with immobilised ligand,,100%
"CDK7 (Homo sapiens, UniProt P50613)",cell-free assay,competition with immobilised ligand,,76%
"Tyrosine-protein kinase ABL1, phosphorylated (ABL1, Homo sapiens, UniProt P00519, M351T)",cell-free assay,competition with immobilised ligand,,90%
"TYRO3 (Homo sapiens, UniProt Q06418)",cell-free assay,competition with immobilised ligand,,100%
"PLK1 (Homo sapiens, UniProt P53350)",cell-free assay,competition with immobilised ligand,,90%
"STK17A (Homo sapiens, UniProt Q9UEE5)",cell-free assay,competition with immobilised ligand,,97%
"SGK3 (Homo sapiens, UniProt Q96BR1)",cell-free assay,competition with immobilised ligand,,82%
"PIK3CA (Homo sapiens, UniProt P42336, I800L)",cell-free assay,competition with immobilised ligand,,93%
"EPHB2 (Homo sapiens, UniProt P29323)",cell-free assay,competition with immobilised ligand,,100%
"FLT3 (Homo sapiens, UniProt P36888, D835Y)",cell-free assay,competition with immobilised ligand,,92%
"GSK3B (Homo sapiens, UniProt P49841)",cell-free assay,competition with immobilised ligand,,95%
"STK26 (Homo sapiens, UniProt Q9P289)",cell-free assay,competition with immobilised ligand,,81%

# Series 5
# Structure (SMILES): CC(C)[C@H](CO)Nc1nc(Nc2cccc(Cl)c2)c2ncn(C(C)C)c2n1
target,read-out,technique,organism,medium,IC50 [µM]
Trypanosoma brucei protein Tb427tmp.02.5280,binding,kinobead competition,,Trypanosoma brucei lysate,> 10
Trypanosoma brucei protein Tb427tmp.01.1290,binding,kinobead competition,,Trypanosoma brucei lysate,> 10
"CSNK2A1 (Homo sapiens, UniProt P68400)",,,,,> 10
Trypanosoma brucei kinase GI 71749328,binding,kinobead competition,,Trypanosoma brucei lysate,> 10
protein Tb427tmp.01.1475,,kinobead TMT proteomics,Trypanosoma brucei,cell lysate,> 10
"GSK3A (Homo sapiens, UniProt P49840)",,kinobead competition,,MRC5 cell lysate,> 10

# Single results of other studies
Compound,technique,host,dose,measurement,value
CC(C)n1cnc(-c2ccc(F)cc2)c1-c1ncc(C(=O)Nc2ccc(N3CCN(C)CC3)cc2)[nH]1,phase 2a clinical trial,patients with idiopathic pulmonary fibrosis,60 mg once daily,patients with Infection TEAE,0%

# Excerpt of the above (series 2):
Compound,nuclear SOX9 intensity
CNC(=O)c1c(F)cccc1Nc1nc(Nc2cc3c(cc2OC)CCN3C(=O)CN(C)C)nc2[nH]ccc12,90 % of DMSO
N#Cc1cc(C2=Nc3ccc(Br)cc3NC(=O)C2)ccn1,84.3 % of DMSO
OCC(O)COc1ccc(Cl)cc1 (centres unmarked),101 % of DMSO
CCCCCN(C)CCC(O)(P(=O)(O)O)P(=O)(O)O,108 % of DMSO
